Assay results collected from several papers.
Protocols differ between the studies behind these lines. ± gives the spread as reported.
UniProt Q9UHI6, sequence (whole entry, looked up): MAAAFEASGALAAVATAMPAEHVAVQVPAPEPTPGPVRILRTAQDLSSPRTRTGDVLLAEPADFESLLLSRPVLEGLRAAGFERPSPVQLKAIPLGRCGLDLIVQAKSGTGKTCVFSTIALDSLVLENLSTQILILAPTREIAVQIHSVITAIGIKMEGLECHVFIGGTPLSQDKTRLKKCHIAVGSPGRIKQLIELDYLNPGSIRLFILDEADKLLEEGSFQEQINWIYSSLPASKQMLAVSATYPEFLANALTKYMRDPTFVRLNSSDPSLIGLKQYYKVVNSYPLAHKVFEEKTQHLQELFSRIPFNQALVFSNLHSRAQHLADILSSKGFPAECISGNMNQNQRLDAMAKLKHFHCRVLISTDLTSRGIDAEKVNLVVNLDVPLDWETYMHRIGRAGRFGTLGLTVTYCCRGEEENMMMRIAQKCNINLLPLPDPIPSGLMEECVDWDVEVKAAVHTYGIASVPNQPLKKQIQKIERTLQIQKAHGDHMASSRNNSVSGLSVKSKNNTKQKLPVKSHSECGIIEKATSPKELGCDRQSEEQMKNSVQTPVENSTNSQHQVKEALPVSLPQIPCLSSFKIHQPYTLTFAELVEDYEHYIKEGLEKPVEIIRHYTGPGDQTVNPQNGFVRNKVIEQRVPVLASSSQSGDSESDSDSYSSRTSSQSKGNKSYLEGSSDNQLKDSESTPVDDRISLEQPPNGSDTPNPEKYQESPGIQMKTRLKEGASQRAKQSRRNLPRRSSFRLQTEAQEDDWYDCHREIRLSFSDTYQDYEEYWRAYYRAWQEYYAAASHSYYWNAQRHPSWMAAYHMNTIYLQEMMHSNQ
UniProt P19793, sequence (whole entry, looked up): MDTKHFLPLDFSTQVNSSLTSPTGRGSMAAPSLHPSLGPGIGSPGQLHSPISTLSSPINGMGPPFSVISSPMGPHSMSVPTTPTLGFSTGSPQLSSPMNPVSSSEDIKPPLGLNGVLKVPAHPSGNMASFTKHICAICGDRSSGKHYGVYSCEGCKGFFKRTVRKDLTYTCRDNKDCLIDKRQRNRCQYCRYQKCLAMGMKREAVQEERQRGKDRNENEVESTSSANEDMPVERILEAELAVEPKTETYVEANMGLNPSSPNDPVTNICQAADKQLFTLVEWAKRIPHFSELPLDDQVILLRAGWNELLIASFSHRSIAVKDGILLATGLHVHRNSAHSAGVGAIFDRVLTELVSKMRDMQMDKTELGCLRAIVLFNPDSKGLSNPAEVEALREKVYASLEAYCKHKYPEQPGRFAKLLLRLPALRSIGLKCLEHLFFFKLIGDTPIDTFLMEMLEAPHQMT

| SMILES | tested on | assay | system | setting | scale | quantity | result |
| --- | --- | --- | --- | --- | --- | --- | --- |
| CN1CC[C@@H](c2c(O)cc(O)c3c(=O)cc(-c4ccc(C(F)(F)F)cc4Cl)oc23)[C@@H]1CO | – | refers to: Fatigue | relapsed or refractory haematological malignancies | oral, dose not given, grade ≥3 | – | adverse event incidence | 0% |
| COc1cc(Nc2ncc(F)c(Nc3ccc4c(n3)NC(=O)C(C)(C)O4)n2)cc(OC)c1OC | RXRA (Homo sapiens, UniProt P19793) | – | – | – | – | IC50 | > 10 µM |
| CC[C@H](C)[C@H](NC(=O)[C@H](Cc1ccccc1)NC(=O)[C@H](CCC(=O)O)NC(=O)[C@H](CCCNC(=N)N)NC(=O)[C@H](C)NC(=O)[C@H](C)NC(=O)[C@H](CCC(N)=O)NC(=O)[C@H](CCC(=O)O)NC(=O)[C@H](CCC(=O)O)NC(=O)[C@H](CC(C)C)NC(=O)[C@H](Cc1ccc(O)cc1)NC(=O)[C@H](CO)NC(=O)[C@H](CO)NC(=O)[C@@H](NC(=O)[C@H](CC(=O)O)NC(=O)[C@H](CO)NC(=O)[C@@H](NC(=O)[C@H](Cc1ccccc1)NC(=O)[C@@H](NC(=O)CNC(=O)[C@H](CCC(=O)O)NC(=O)[C@H](C)NC(=O)CCc1cnc[nH]1)[C@@H](C)O)[C@@H](C)O)C(C)C)C(=O)N[C@@H](C)C(=O)N[C@@H](Cc1c[nH]c2ccccc12)C(=O)N[C@@H](CC(C)C)C(=O)N[C@H](C(=O)N[C@@H](CCCNC(=N)N)C(=O)NCC(=O)N[C@@H](CCCNC(=N)N)C(=O)N[C@@H](CCCCNC(=O)COCCOCCNC(=O)COCCOCCNC(=O)CC[C@H](NC(=O)CCCCCCCCCCCCCCCCC(=O)O)C(=O)O)C(=O)NCC(=O)NCC(=O)N[C@@H](CO)C(=O)N[C@@H](CCSC)C(=O)N[C@H](C(=O)N[C@@H](CCCCNc1c(NCCCCCN(O)C(=O)CCC(=O)NCCCCCN(O)C(=O)CCC(=O)NCCCCCN(O)C(C)=O)c(=O)c1=O)C(=O)O)C(C)C)C(C)C [zirconium-89 labelled] | – | ex vivo gamma counting | male Sprague-Dawley rat, blood | intravenous, 1 nmol, 72 h, mean of 3 animals | – | tissue uptake | 0.029 %ID/g |
| O=C(Oc1ccc(Br)cc1)[c-]1cccc1.[Fe+2].c1cc[cH-]c1 | – | cyclic voltammetry | methanol/DMEM 1:1 with TBAPF6 | Pt disk electrode, Ag/AgCl reference, with: scan rate 100 mV/s | – | oxidation potential | 580 mV |
| CO[C@H]1C[C@@H]2CC[C@@H](C)[C@@](O)(O2)C(=O)C(=O)N2CCCC[C@H]2C(=O)O[C@H]([C@H](C)C[C@@H]2CC[C@@H](OC(=O)NCCOCCOCCOCCOCCOCCOCCOCCOCCC(=O)N3CCc4cc(Cn5nc(-c6ccc7oc(N)nc7c6)c6c(N)ncnc65)ccc4C3)[C@H](OC)C2)C[C@@H](O)[C@H](C)/C=C(\C)[C@@H](O)[C@@H](OC)C(=O)[C@H](C)C[C@H](C)/C=C/C=C/C=C/1C | – | – | patients with advanced solid tumours | intravenous, dose not given, grade ≥3 | – | incidence of Rash TRAE | 3.5% |
| C[C@]1(CO)Cc2ncn(-c3ccc(C#N)c(Cl)c3)c2C(=O)O1 | – | – | human | 0.7 to 80 mg, European single ascending dose | – | drug-related AE incidence | 8.3% |
| C[C@@H](NC(=O)N1C(=O)[C@H](Cc2ccnc(N)c2)[C@H]1C(=O)O)C1CCCCC1 | – | – | healthy adult Chinese volunteers | continuous intravenous infusion, 2.25 mg/kg/h, 5-day infusion, CTCAE 5.0 grading | – | incidence of grade 3 or higher AEs | 0% |
| C[C@H]1CN(c2n[nH]c3nc(N[C@H]4CC[C@H](NS(=O)(=O)CCC(F)(F)F)CC4)ncc23)CCO1 | DDX20 (Homo sapiens, UniProt Q9UHI6) | inhibitor, Kinobeads competition profiling | – | 20 µM | baseline: vehicle | relative abundance | 1.14 |
| CC(C)C[C@H](NC(=O)[C@H](CCCCN)NC(=O)OCC1c2ccccc2-c2ccccc21)C(=O)N[C@H](C(=O)N[C@@H](Cc1ccccc1)C(=O)N[C@@H](Cc1ccccc1)C(=O)N[C@@H](CCCCN)C(=O)NCC(=O)N[C@@H](Cc1ccccc1)C(=O)N[C@@H](C)C(=O)N[C@@H](Cc1c[nH]c2ccccc12)C(=O)N[C@@H](CC(N)=O)C(=O)N[C@H](C(=O)N[C@H]1CSSC[C@@H](C(=O)N[C@@H](Cc2c[nH]cn2)C(=O)N[C@@H](CCCNC(=N)N)C(=O)N[C@@H](CCCNC(=N)N)C(=O)N[C@@H](C)C(=O)N[C@@H](CC(N)=O)C(N)=O)NC(=O)[C@H](C(C)C)NC(=O)[C@H](CCCNC(=N)N)NC(=O)[C@H](C(C)C)NC(=O)CNC(=O)[C@H](CC(N)=O)NC(=O)[C@H](CCCNC(=N)N)NC(=O)[C@H](Cc2ccc(O)cc2)NC(=O)[C@H](C(C)C)NC1=O)C(C)C)C(C)C | – | – | ICR mice, blood | intraperitoneal, 5 mg/kg, day 5 | – | mean platelet volume | 6.75 ± 0.24 fL |
| C[C@@H]1OC(=O)NN=C1c1ccc(-c2ccc(F)cc2)c(C(F)(F)F)c1 | – | phase I trial, refers to: alkaline phosphatase increased | human patients | 10 mg load, 0.5 mg daily, all grades | – | patients with TEAE | 0% |
| Clc1ccc2nc(N3CCC(NCCc4cccnc4)CC3)sc2c1 | Vero-E6 | CellTiter-Glo ATP | – | 72 h, second round 5-point | baseline: DMSO 0%, hyamine -100%, more negative, more toxic | maximum response | -14% |
| O=C(Nc1ccccc1)C1CCN(C(=O)Oc2cccnc2)CC1 | – | Bond-Lader VAS | healthy women | oral, 60 mg | baseline: pre-dose baseline, direction not given | change in contentment score | 12 |
| Cc1ccccc1CN1C(=O)c2ccccc2Sc2ccc(C(=O)NCCCN3CCOCC3)cc21 | Vero-E6 | CellTiter-Glo ATP | – | 72 h, retest 8-point duplicates | baseline: DMSO 0%, hyamine -100%, more negative, more toxic | maximum response | -15.6% |
| O=S(=O)(Nc1ccccc1)c1ccc(NC(=S)Nc2ccccc2)cc1 | – | – | female mouse, blood | oral, 20 mg/kg daily, 14 days | – | mean corpuscular haemoglobin | 11.8 pg |
| Cc1cc(C)c(CNC(=O)c2cc(Cl)c3c(c2C)O[C@@](C)([C@H]2CC[C@H](N(C)C)CC2)O3)c(=O)[nH]1 | – | – | relapsed/refractory NHL patients | dose not given, trial, safety set, treatment-related TEAE grade 5 | – | incidence of tooth infection | 0% |
| CC(=O)c1c(C)c2cnc(Nc3ccc(C4CCN(CCS(C)(=O)=O)CC4)cn3)nc2n(C2CCCC2)c1=O | – | – | human, plasma | oral, 50 mg twice daily, day 21, multiple dose, with: letrozole | – | k_el | 4.17e-05 s⁻¹ |
| COc1cc2c(Oc3ccc4[nH]c(C)cc4c3F)ccnc2cc1OCC1(N)CC1 | – | – | paediatric refractory sarcoma patients | 10 mg | – | Tinnitus incidence | 0% |
| O=C(c1ccc(F)c(F)c1Nc1ccc(I)cc1F)N1CC(O)([C@@H]2CCCCN2)C1 | – | – | patients aged 6 to sample A years | oral, dose not given | – | fatal adverse events | 0% |

Some of these lines once more:
| SMILES | tested on | assay | system | setting | scale | quantity | result |
| --- | --- | --- | --- | --- | --- | --- | --- |
| Cc1cc(C)c(CNC(=O)c2cc(Cl)c3c(c2C)O[C@@](C)([C@H]2CC[C@H](N(C)C)CC2)O3)c(=O)[nH]1 | – | – | relapsed/refractory NHL patients | dose not given, trial, safety set, treatment-related TEAE grade 5 | – | incidence of tooth infection | 0% |
| CC(C)C[C@H](NC(=O)[C@H](CCCCN)NC(=O)OCC1c2ccccc2-c2ccccc21)C(=O)N[C@H](C(=O)N[C@@H](Cc1ccccc1)C(=O)N[C@@H](Cc1ccccc1)C(=O)N[C@@H](CCCCN)C(=O)NCC(=O)N[C@@H](Cc1ccccc1)C(=O)N[C@@H](C)C(=O)N[C@@H](Cc1c[nH]c2ccccc12)C(=O)N[C@@H](CC(N)=O)C(=O)N[C@H](C(=O)N[C@H]1CSSC[C@@H](C(=O)N[C@@H](Cc2c[nH]cn2)C(=O)N[C@@H](CCCNC(=N)N)C(=O)N[C@@H](CCCNC(=N)N)C(=O)N[C@@H](C)C(=O)N[C@@H](CC(N)=O)C(N)=O)NC(=O)[C@H](C(C)C)NC(=O)[C@H](CCCNC(=N)N)NC(=O)[C@H](C(C)C)NC(=O)CNC(=O)[C@H](CC(N)=O)NC(=O)[C@H](CCCNC(=N)N)NC(=O)[C@H](Cc2ccc(O)cc2)NC(=O)[C@H](C(C)C)NC1=O)C(C)C)C(C)C | – | – | ICR mice, blood | intraperitoneal, 5 mg/kg, day 5 | – | mean platelet volume | 6.75 ± 0.24 fL |
| C[C@@H](NC(=O)N1C(=O)[C@H](Cc2ccnc(N)c2)[C@H]1C(=O)O)C1CCCCC1 | – | – | healthy adult Chinese volunteers | continuous intravenous infusion, 2.25 mg/kg/h, 5-day infusion, CTCAE 5.0 grading | – | incidence of grade 3 or higher AEs | 0% |
